Published values from different studies.
Each numbered part is a random draw from the data of one study; scales do not carry over between parts. Positions count from the first letter of the parent shown.

Set 1
Target: RNA binding protein fox-1 homolog 2, RRM domain, GST-SBP tag (RBFOX2, Homo sapiens, UniProt O43251-10, residues 100-194)
Technique: RNA Bind-n-Seq
Molecule type: RNA
Sample: in vitro
Tested at: 365 nM
Setting: natural RNA segment, single round, ends assumed
Relative to: no-protein control
Reading: higher = stronger binding
Constant ends, left off below: GGGAGUUCUACAGUCCGACGAUC … UGGAAUUCUCGGGUGCCAA
Residues (chain): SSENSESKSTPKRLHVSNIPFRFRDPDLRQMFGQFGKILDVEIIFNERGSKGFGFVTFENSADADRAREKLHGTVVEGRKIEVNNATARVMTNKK
| Oligonucleotide | RBNS enrichment (R) |
| --- | --- |
| ACAUGACAAGAACAAACCCGGUUUUAAGGGUUGAAUGUAGGGGGAUACCAUUCUGUCUUUUAGACUUUCAACAUCUGCUAUGGUGGAGCACAAAUGUUAUUUAAAAGCAU | 1.88 |
| CCCCUGGGCCACUUCUGCAGCUCCCACCAGAAUGGAUGACCAGAUUCUGUUGGGUUUGGGCACAUAGGGCCAAAGGCAGAGGAGGGUGGCACUCUCAUGUUGGAACUUCU | 1.68 |
| UCUGUUAAGGAGUUUUUCCCAAGAAGAAAAGUAUUUAAAAGAAAUACCAGUGAGUGCCUUAAAGUUGGAGAAGUAACUGCCCAUGCCCAGAAAUAAGGAUGCCAGUGCCC | 2.01 |
| AAUCACCAGCAGGAGGGUCUGCCUGCCACUGGGAGCCUUGGGGAGGCUGGGAGCCUUAGAGAAACGCAAGCUCACGCCUUCAUAAAUAUGCAGUUUCCUGCUUUCUGCCC | 0.558 |
| AACUGGGCUCAAACAAUCCUCAGCCUAAAACACUGUUGUCUUUUAAUAUGCUUCCAACCCAAAGGCCUUUCAUCUCAGUAUCUGUCAAACUUGAAUAACGUCUUCUCUUU | 0.531 |
| GGCAAUAUUUUAUCAUAUGUUCUAAAAGAGAAGGAAGAGAAAAUACUACUUUCUCAAAAUGGAAGCCCUUAAAGGUGCUUUGAUACUGAAGGACACAAAUGUGACCGUCC | 0.346 |
| AACCUAGGAAGGGAACCAAGGAGGCUGGCCCUUGCUCCCUGACUCUUUCAGUGACCACCACCUCCCUAUGCAGAAGGGAUGUCAAUGUCAACAGCAGGGACUGAGACCUU | 0.688 |
| UUUGUUUAGACGAGAUCAUACCGGUAAAGCAGGAAUGACAAAGCUUGCUUUUCUGGUAUGUUCUAGGUGUAUUGUGACUUUUACUGUUAUAUUAAUUGCCAAUAUAAGUA | 0.356 |
| CUGUAAACACAGGGUCCGCUGAUCAAGUCCUUCUUGCUCAUUGCAGUUUGAUUUGCCAGCAGUCAUACUGAGACUAGCUUGAUCCUACACCUGUUAGACAGUGGCAGAGA | 0.671 |
| CUGCAUGUCAGUUUCUCUCCUUCCACAGUUAUGUUGGCUUCCAUGCUUUUUCAGAUUGUGUGGUAGCCAUAGGACCUGACCCAGUUUGUGCCUCCUGGGAUCCUCAUCCC | 0.816 |
| AGUCGAUCCCACCAGCCCUCGAUGUGCACAGGCAGUGGGUGUCAAGCUCGGGAAGUGGCUGGCUGGCUGGCUGGCAUGUCUAGACGCCUGGUGAGUUAUCAGCCAGUUAA | 0.663 |
| UUUAAAUGGGUUAAAAAGAUGUUAAUAUAACAAUAUAUGAUAUAUAAACCUUAAGUGAAAUGAAAGAAAAAGAUCUAUUGCAGAUAUCUGAUGGAUGUAGUUUUCUUUUU | 0.732 |

Set 2
Target: CCND1, cyclin fold, Cln2 fusion (human)
Technique: yeast growth competition, sequencing
Sample: yeast
Setting: weak parent motif
Relative to: not given
Reading: higher = stronger binding
Starting sequence: CDC25A docking peptide (human); PPHRRRLLFACSP
| Variant | normalised enrichment score |
| --- | --- |
| PRHRRRLLFACSP [P2R] | 0.472 |
| PVHRRRLLFACSP [P2V] | 0.00599 |
| PPHRRELLFACSP [R6E] | -0.0384 |
| PPHRRRLLWACSP [F9W] | 0.328 |
| PPDRRRLLFACSP [H3D] | 0.5 |
| PTHRRRLLFACSP [P2T] | 0.584 |
| PDHRRRLLFACSP [P2D] | -0.133 |
| EPHRRRLLFACSP [P1E] | -0.034 |
| PPHRRRLLFACSN [P13N] | 0.411 |
| PPHRKRLLLACSP [R5K F9L] | 0.059 |
| WPHRRRLLFACSP [P1W] | 0.321 |
| PPNRRRLLFACSP [H3N] | 0.167 |
| PPHRRRLLFACDP [S12D] | -0.372 |
| PPHRRRILFACSP [L7I] | 0.43 |
| PPHRRRLLFACSL [P13L] | 0.069 |
| NPHRRRLLFACSP [P1N] | 0.0312 |
| PPHRRRRLFACSP [L7R] | 0.0981 |
| PPHRRRALFACSP [L7A] | 0.344 |
| PPHRRRNLFACSP [L7N] | -0.0519 |
| IPHRRRLLFACSP [P1I] | 0.181 |
| PPHRDRLLFACSP [R5D] | 0.0776 |
| PPHRRRLLFACVP [S12V] | 0.475 |
| PPHRRVLLFACSP [R6V] | 0.168 |
| DPHRRRLLFACSP [P1D] | -0.0856 |
| PPHTRRLLFACSP [R4T] | 0.378 |

Set 3
Target: Interferon regulatory factor 7, full length, phosphomimetic (IRF7, Homo sapiens, UniProt Q92985, residues 1-503, S471D/S472D/S475D/S476D/S477D/S483D/S484D/S487D)
UniProt Q92985, sequence (whole entry, unmodified, looked up): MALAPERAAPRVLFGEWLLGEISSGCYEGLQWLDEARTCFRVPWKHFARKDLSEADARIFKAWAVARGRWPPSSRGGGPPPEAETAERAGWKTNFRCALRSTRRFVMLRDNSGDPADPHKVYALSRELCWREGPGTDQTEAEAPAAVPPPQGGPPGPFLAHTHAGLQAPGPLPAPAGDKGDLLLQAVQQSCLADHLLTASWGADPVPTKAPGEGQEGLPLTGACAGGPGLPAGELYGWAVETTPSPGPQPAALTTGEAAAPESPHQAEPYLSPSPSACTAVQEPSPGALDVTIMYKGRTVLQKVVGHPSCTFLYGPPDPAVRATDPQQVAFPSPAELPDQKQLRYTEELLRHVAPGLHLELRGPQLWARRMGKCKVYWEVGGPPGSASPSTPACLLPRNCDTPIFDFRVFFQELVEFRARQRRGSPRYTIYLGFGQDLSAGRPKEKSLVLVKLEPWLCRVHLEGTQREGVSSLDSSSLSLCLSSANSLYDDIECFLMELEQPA
Technique: protein-binding microarray
Molecule type: double-stranded DNA, one strand shown
Sample: in vitro
Tested at: 2200 nM top
Setting: 60-bp whole probe
Added: salmon DNA 0.4 mg/ml
Relative to: random background probes
Reading: higher = stronger binding
Constant ends, left off below: GCCTAGCAC … GTCTTGATTCGCTTGACGCTGCTG
| Oligonucleotide | fitted relative affinity [z-score] |
| --- | --- |
| TTAGATATCAGTCTCGGTTAGTGCTAG | 0.835 |
| TCACCTTTACATTCCCCACTGTGCTAG | 2.62 |
| TCAGTTTTACTTTCTATACTGTGCTAG | 4.19 |
| GACGGGCTCCTACTGCTGACGTGCTAG | -0.342 |
| TTAAATTTTAATAACACAGAGTGCTAG | -1.06 |
| TTAGGGATCGGTCTCGGTTAGTGCTAG | -0.0939 |
| TCACTTTTCGCTTTCTTACTGTGCTAG | 8.56 |
| TTAGCTTTCAGTATCGATTAGTGCTAG | 2.33 |
| CTAGAACTGAGTCTCGATTAGTGCTAG | -0.165 |
| TCAGTTATAATATTATTACTGTGCTAG | 0.222 |
| GACTATTTCGGGTTTCGAGACGTGCTA | 4.44 |
| GTGTTCTGGGCAGCAGAGGGGTGCTAG | -0.0942 |
| TTAGGTCTGGGGTTTCGGTTAGTGCTA | 2.69 |
| CTAGGACTGCTTATCCTTTAGTGCTAG | 0.333 |
| TCAGTCTTCAGGTTCTCACTGTGCTAG | 1.35 |
| ACCTAATTCACTATTACCAAGTGCTAG | 1.17 |
| GACGATTTCAGTTTCGAGGCGTGCTAG | 4.8 |
| GACCGTATCCTTATCCTGACGTGCTAG | 1.61 |
| TTAGATATCAATATCGATTAGTGCTAG | -0.174 |
| GACGGTATCTTACTGCTGACGTGCTAG | 0.388 |
| CTGTTAAAGAATTAAGAAGGGTGCTAG | -1.24 |
| TTAGATATCGGGAATCGATTAGTGCTA | -0.332 |
| TTAGATTTCCGTATCGATTAGTGCTAG | 1.53 |
| GACGGACTGGGACTGGCGACGTGCTAG | -0.894 |

Set 4
Target: Fragile X messenger ribonucleoprotein 1, C-terminal low-complexity region (Fmr1, Mus musculus, UniProt P35922)
Technique: RNA Bind-n-Seq
Molecule type: RNA
Sample: in vitro
Tested at: 200 nM
Setting: whole 134-nt RNA, ends assumed
Added: 150 mM LiCl
Relative to: input library
Reading: higher = stronger binding
Each molecule: 7-deaza-guanosine replaces G
Constant ends, left off below: GGGAGUUCUACAGUCCGACGAUC … UGGAAUUCUCGGGUGUCAAGG
| Oligonucleotide | log2 enrichment |
| --- | --- |
| GCAGGAAGUAAAAACAAAAGGAAAUGCUUCGGAUAGUGGCAGGGGUGGGGGUUGCUAAGGAAAGGGUGGGAUGGGAGUGGGUAAAGAGUU | 1.57 |
| UUUGUAGAGCAGCCCGACGGCCAUGGAGGCUGAAGAGACGAUGGAAUGCCUUCAGGAGUUCCCUGAACAUCAUAAAAUGAUCCUCGACCG | -2.09 |
| UCAAGUCCUGUGCUACACAUCGUAUGUACCGAAUCGGGGUUGGGUUGGUUGGGGAAAGUAUUAUGUUACGCCGUUCGGAUCUGCACUUCC | -0.368 |
| CAAGUCCUGUGCUACACAUCGUAUGUACCGAAUCGGGCCCGGGGCCCGGGCCCGGGAAAGUAUUAUGUUACGCCGUUCGGAUCUGCACUU | -2.68 |
| AAGUCCUGUGCUACACAUCGUAUGUACCGAAUCGGGGUUUUGGGGUUUUGGUUUUGGAAAGUAUUAUGUUACGCCGUUCGGAUCUGCACU | -1.84 |
| UAACUUUAGAGGAGGAUCUGUUGGAUAUGGCAGUGGACGUGGAUUUGGGGAUGGCUAUAAUGGGUAUGGAGGAGGACCUGGAGGUGGCAA | 0.273 |
| CACAGACAACACGCACCCACACAGACACAGAGCGAAGGGGUUGGGAUGGGGACAGGGUGCACAGCAGGGCGGGGUAGGACCCCAGCCCCU | 0.278 |
| UCAAGUCCUGUGCUACACAUCGUAUGUACCGAAUCGGAAAAAGGUUUGGUUUGGAAAGUAUUAUGUUACGCCGUUCGGAUCUGCACUUCC | -1.95 |
| CAAGUCCUGUGCUACACAUCGUAUGUACCGAAUCGGAAAGGGGAAAGGGGAAAGGGAAAGUAUUAUGUUACGCCGUUCGGAUCUGCACUU | -0.474 |
| UCAAGUCCUGUGCUACACAUCGUAUGUACCGAAUCGGGGCCCGGGCCCGGCCCGGAAAGUAUUAUGUUACGCCGUUCGGAUCUGCACUUC | -1.28 |
| UCCUGUGCUACACAUCGUAUGUACCGAAUCGGGUUUUUUUGGUUUUUUUGGUUUUUUUGGAAAGUAUUAUGUUACGCCGUUCGGAUCUGC | -0.374 |

Some of these lines once more (set 4):
| Oligonucleotide | log2 enrichment |
| --- | --- |
| CAAGUCCUGUGCUACACAUCGUAUGUACCGAAUCGGGCCCGGGGCCCGGGCCCGGGAAAGUAUUAUGUUACGCCGUUCGGAUCUGCACUU | -2.68 |
| AAGUCCUGUGCUACACAUCGUAUGUACCGAAUCGGGGUUUUGGGGUUUUGGUUUUGGAAAGUAUUAUGUUACGCCGUUCGGAUCUGCACU | -1.84 |
| UAACUUUAGAGGAGGAUCUGUUGGAUAUGGCAGUGGACGUGGAUUUGGGGAUGGCUAUAAUGGGUAUGGAGGAGGACCUGGAGGUGGCAA | 0.273 |
| CACAGACAACACGCACCCACACAGACACAGAGCGAAGGGGUUGGGAUGGGGACAGGGUGCACAGCAGGGCGGGGUAGGACCCCAGCCCCU | 0.278 |
| UCAAGUCCUGUGCUACACAUCGUAUGUACCGAAUCGGAAAAAGGUUUGGUUUGGAAAGUAUUAUGUUACGCCGUUCGGAUCUGCACUUCC | -1.95 |
| CAAGUCCUGUGCUACACAUCGUAUGUACCGAAUCGGAAAGGGGAAAGGGGAAAGGGAAAGUAUUAUGUUACGCCGUUCGGAUCUGCACUU | -0.474 |
